Results of several laboratories.
Numbered parts are unrelated; each lists some results of a single study. Positions count from the first letter of the parent shown.

Block 1 — technique: protein binding microarray; molecule type: double-stranded DNA, one strand shown; matrix: in vitro; concentration: not given; relative to: not given; reading: higher = stronger binding; measurement: E-score
Target: Histone acetyltransferase KAT6A, winged helix 2, GST fusion (KAT6A, Homo sapiens, UniProt Q92794, residues 85-181)
Setting: 8-mer, flanks averaged, mean of 2 arrays, mostly near background
Target sequence (chain): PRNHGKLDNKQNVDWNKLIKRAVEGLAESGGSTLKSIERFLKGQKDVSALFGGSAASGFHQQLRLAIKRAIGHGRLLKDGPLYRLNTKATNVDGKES
Strand = TTGCGCAA; result = -0.0602
Strand = AAAAGACA; result = 0.0719
Strand = TCTTTTAA; result = 0.126
Strand = AAAACGCA; result = 0.191
Strand = AGGCAACA; result = -0.0754
Strand = AACCCTAC; result = -0.187
Strand = GACTGGGA; result = -0.0735
Strand = ATTCATTC; result = -0.103
Strand = ACTGTTGC; result = -0.0423
Strand = CGACCTTC; result = 0.0875
Strand = CTGTAGCA; result = -0.13
Strand = CAGGGGCG; result = 0.0945
Strand = AAAAGCGA; result = 0.0815
Strand = ATCCACTA; result = -0.166
Strand = GGGGAATA; result = 0.0147

Block 2 — technique: RNA Bind-n-Seq; molecule type: RNA; matrix: in vitro; concentration: not given; relative to: input RNA pool; reading: higher = stronger binding; measurement: bound/input enrichment
Target: RING finger protein unkempt homolog, zinc fingers 1-6, GST-SBP tag (UNK, Homo sapiens, UniProt Q9C0B0, residues 30-357)
Chain of UniProt Q9C0B0 (30-357, looked up): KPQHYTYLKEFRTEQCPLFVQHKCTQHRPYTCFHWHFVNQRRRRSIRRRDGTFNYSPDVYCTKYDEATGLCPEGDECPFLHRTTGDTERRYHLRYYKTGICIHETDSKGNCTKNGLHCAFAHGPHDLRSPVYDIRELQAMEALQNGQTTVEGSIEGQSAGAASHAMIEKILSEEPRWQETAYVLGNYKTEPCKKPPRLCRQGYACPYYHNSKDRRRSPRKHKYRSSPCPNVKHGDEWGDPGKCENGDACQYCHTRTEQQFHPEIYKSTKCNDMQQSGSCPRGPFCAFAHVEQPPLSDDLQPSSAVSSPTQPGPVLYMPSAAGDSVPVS
Setting: RNA with constant flanks, human-mouse chimeric sites, ends assumed
All sequences stand within: GGGAGUUCUACAGUCCGACGAUC … CAACAGAGGAUUGAGCAUCA
Strand = UCGGAUGCUGUGCUGGGUCACUUUCCGUAUCCAGAUCCUUCACAGUGGACAGAUGAAGAACUGGGAAUCCCUCCUGAUGACGAGGACUGACACUGUAGACUCAGCCUACGAGUAGGAGCA; result = 0.312 ratio
Strand = AGAAUCUUGGGACUGUUUUGCUUGAUUGGUCAUUGAUAGCUUAACAAACAUGGAGAUGAGAUUAGAAAUCUUGACAUCAACAGGUAUUAAGCAGAAAAAACCAUGGCCACGUGUCUCCUG; result = 0.122 ratio
Strand = AAUUUCCUGUCAUACUUUUUAGACAUUCACAUCAGACUUACAGAGCACCUGGCCACAUUCUAGGUUUGAAUUAUUUCUCAGCUAUGGGGGUAUGAUUAUGAGAACACUGCUUAACUAAUG; result = 1.5 ratio
Strand = AAAGAAUGGAUAGAGUGUGCACACGGGAUCGGUGGGACCCGGGCGAAAAAGGAGUGCAAGAUAGAGUAUGAUGAUUUCGAAGAGUGCUUGCUUCGGUACAAAACGAUGAGGCGAAUGCAU; result = 1.44 ratio
Strand = CCAAGUGAUUCAUCCCAAGGACAGGCCGCCCAGUCUGAUGCCUGGACUGAUGACAGUAUGGAAGGGCCUAGUCAAAAUGUUGAAGCUGAGUCAAUUCAGGAUGCCAUGAGUAUGGAAGAG; result = 0.183 ratio

Block 3 — technique: protein-binding microarray; molecule type: double-stranded DNA, one strand shown; matrix: in vitro; concentration: 2540 nM top; setting: 60-bp whole probe; together with: salmon DNA 0.4 mg/ml; relative to: random background probes; reading: higher = stronger binding; measurement: fitted relative affinity; all sequences stand within: GCCTAGCAC … GTCTTGATTCGCTTGACGCTGCTG
Target: Interferon regulatory factor 3, full length, phosphomimetic (IRF3, Homo sapiens, UniProt Q14653, residues 1-427, S386D/S396D/S398D/S402D/T404D/S405D)
Chain of UniProt Q14653 (whole entry, unmodified, looked up): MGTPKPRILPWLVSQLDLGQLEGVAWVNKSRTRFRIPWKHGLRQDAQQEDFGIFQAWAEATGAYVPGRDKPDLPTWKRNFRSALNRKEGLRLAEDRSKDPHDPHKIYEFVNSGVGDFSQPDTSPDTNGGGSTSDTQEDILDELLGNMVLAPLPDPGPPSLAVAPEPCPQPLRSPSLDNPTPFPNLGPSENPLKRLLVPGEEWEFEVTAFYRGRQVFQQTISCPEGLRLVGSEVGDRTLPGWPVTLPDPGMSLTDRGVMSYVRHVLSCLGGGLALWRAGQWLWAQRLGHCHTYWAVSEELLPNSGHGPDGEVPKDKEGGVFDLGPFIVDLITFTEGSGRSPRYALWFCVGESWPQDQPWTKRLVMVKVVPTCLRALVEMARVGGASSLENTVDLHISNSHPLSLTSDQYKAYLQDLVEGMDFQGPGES
Strand = TTAGGTATCCTACCGCTTTAGTGCTAG; result = 1.58 z-score
Strand = TTAGGACTGCTTATCCTTAAGTGCTAG; result = 0.000444 z-score
Strand = TTAGATCTCAGAATCGATTAGTGCTAG; result = 0.505 z-score
Strand = TTAGTTTTCCTTCTCCTTTAGTGCTAG; result = 7.8 z-score
Strand = TCACTAATAAATATGAGACTGTGCTAG; result = 0.053 z-score
Strand = GACGGTATCCTATTCCTGACGTGCTAG; result = 4.64 z-score
Strand = TTAGAGCTGAGTATCGATTAGTGCTAG; result = -0.0185 z-score
Strand = GACGGTATCGGTTATCGGGACGTGCTA; result = 3.98 z-score
Strand = GACGGTATCGCTATCGGGACGTGCTAG; result = 2.57 z-score
Strand = GAAGAACTGAGTATCGAGACGTGCTAG; result = -0.182 z-score
Strand = TTCGGTTTCCTTTTCCTTTAGTGCTAG; result = 11.8 z-score
Strand = TTAGATTTCACTCTCGATTAGTGCTAG; result = 3.09 z-score
Strand = TTAGAACTGAGTCCCGATTAGTGCTAG; result = -0.186 z-score
Strand = TTGGGTATCGACTATCGGTTAGTGCTA; result = -0.146 z-score

Block 4 — technique: RNA Bind-n-Seq; molecule type: RNA; matrix: in vitro; concentration: 200 nM; setting: whole 134-nt RNA, ends assumed; together with: 150 mM KCl; relative to: input library; reading: higher = stronger binding; measurement: log2 enrichment
Target: Fragile X messenger ribonucleoprotein 1, C-terminal low-complexity region (Fmr1, Mus musculus, UniProt P35922)
All sequences stand within: GGGAGUUCUACAGUCCGACGAUC … UGGAAUUCUCGGGUGUCAAGG
Strand = CACAGACAACACGCACCCACACAGACACAGAGGGAAGGGGUUGGGAUGGGGACAGGGUGCACAGCAGGGCAGGGUAGGACCCCAGCCCCU; result = 1.25
Strand = UGGCCCUGGUGGCAUGCGGGGAGGAAGAGGUGGCCUCAUGGAUCGUUGUGGUCCCGGUGGAAUGUUCAGAGGUGGCCGUGGUGGAGACAG; result = 0.0576
Strand = CUGUGCUACACAUCGUAUGUACCGAAUCGGGGUUUUUUGGGGUUUUUUGGGUUUUUUGGGGAAAGUAUUAUGUUACGCCGUUCGGAUCUG; result = -0.218
Strand = AGUCCUGUGCUACACAUCGUAUGUACCGAAUCGGGUUUUUGGUUUUUGGUUUUUGGGGAAAGUAUUAUGUUACGCCGUUCGGAUCUGCAC; result = -0.545
Strand = CCUGUGCUACACAUCGUAUGUACCGAAUCGGGUUUUUUGGGGUUUUUUGGGGUUUUUUGGAAAGUAUUAUGUUACGCCGUUCGGAUCUGC; result = -0.224
Strand = GUGCUACACAUCGUAUGUACCGAAUCGGGGUUUUUUUGGGGAAAAAAAGGGGUUUUUUUGGGGAAAGUAUUAUGUUACGCCGUUCGGAUC; result = 0.459
Strand = UGGUGGACAGAAGGCACUGCAGCCUGAAAUGGCAGAGUCUGGUGCUGACGAUCCGCGAGAAGAUCAAUGCUGCCAUCCAGGACAUGCCAG; result = -1.49
Strand = UAACUUUAGAGGAGGAUCUGAUGGAUAUGGCAGUGGACGUGGAUUUGGGGAUGGCUAUAAUGGGUAUGGAGUAGGACCUGGAGGUGGCAA; result = 0.179
Strand = GCAGGAAGUAAAAACAAAUGGAAAUGCUUCGGAAAGUGGCAGGGGUGGGGGUUGCUAAGGAAAGGGUGGGAUGGGAGUGGGUAAAGAGUU; result = 0.249
Strand = AGUAGCUAUGGUCAACAAAGCAGCUAUGGGCAGCAGCCUCCCACUAGUUACCCACCCCAAACUGGAUCCUACAGCCAAGCUCCAAGUCAA; result = 0.345

Block 5 — technique: RNAcompete; molecule type: RNA; matrix: in vitro; concentration: 20 nM; setting: 7-mer, probes averaged, single round; relative to: mean of 7-mers; reading: higher = stronger binding; measurement: 7-mer Z-score
Target: PABPC1L2, full length, GST fusion (mouse, UniProt A0ABA7IW68)
Target sequence (chain): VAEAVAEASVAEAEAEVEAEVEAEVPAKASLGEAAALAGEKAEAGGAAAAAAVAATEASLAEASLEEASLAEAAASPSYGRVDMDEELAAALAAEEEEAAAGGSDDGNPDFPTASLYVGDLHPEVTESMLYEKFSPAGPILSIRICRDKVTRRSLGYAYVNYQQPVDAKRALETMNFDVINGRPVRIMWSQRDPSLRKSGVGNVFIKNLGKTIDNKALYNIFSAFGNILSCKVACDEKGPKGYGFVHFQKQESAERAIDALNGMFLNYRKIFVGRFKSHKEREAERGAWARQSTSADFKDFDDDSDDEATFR
Strand = AUCAACC; result = -0.119
Strand = GUAUGUU; result = -0.231
Strand = GCAGGAC; result = 0.287
Strand = CAGAAAU; result = 1.16
Strand = UAUCCAG; result = -0.293
Strand = CGUGAUC; result = -0.293
Strand = AACAUAU; result = 0.568
Strand = CAACUAA; result = 0.222
Strand = ACACGCA; result = -0.0482
Strand = AUCAUCC; result = -0.271
Strand = UGAUUAC; result = -0.186

Block 6 — technique: DHFR PCA, deep sequencing; matrix: yeast; together with: (+)-ABA 710 µM; relative to: wild-type fitted maximum; reading: higher = stronger binding; measurement: relative binding score
Target: ABI1, truncated, D143A, DHFR fusion (Arabidopsis thaliana)
Setting: methotrexate growth selection, single substitutions
Parent: PYL1, truncated, DHFR fusion (Arabidopsis thaliana); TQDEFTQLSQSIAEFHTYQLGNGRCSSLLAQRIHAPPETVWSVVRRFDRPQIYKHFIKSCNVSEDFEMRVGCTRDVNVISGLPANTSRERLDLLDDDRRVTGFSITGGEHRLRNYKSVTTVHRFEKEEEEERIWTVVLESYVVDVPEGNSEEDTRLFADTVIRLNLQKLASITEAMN; partner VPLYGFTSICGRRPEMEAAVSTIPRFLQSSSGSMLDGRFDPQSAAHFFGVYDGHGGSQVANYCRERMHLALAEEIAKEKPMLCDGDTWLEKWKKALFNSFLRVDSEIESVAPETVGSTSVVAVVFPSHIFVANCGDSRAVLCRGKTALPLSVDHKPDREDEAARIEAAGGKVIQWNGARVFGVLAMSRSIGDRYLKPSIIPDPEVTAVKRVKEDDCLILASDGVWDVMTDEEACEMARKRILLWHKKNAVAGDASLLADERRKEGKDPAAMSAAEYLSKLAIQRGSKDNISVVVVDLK
Change = Y18A; result = 98.8%
Change = R45T; result = 66.8%
Change = F124E; result = 107%
Change = T1M; result = 96.9%
Change = S42A; result = 102%
Change = L112Y; result = 44.2%
Change = L93F; result = 99.6%
Change = T39V; result = 105%
Change = T86N; result = 109%
Change = H16N; result = 27.7%
Change = H122A; result = 66.8%

Block 7 — technique: competition protein-binding microarray; molecule type: double-stranded DNA, one strand shown; matrix: in vitro; concentration: 2 µM; together with: Pho4 competitor, 0.05 µM; reading: higher = stronger binding; measurement: fluorescence intensity; all sequences stand within: … GTCTTGATTCGCTTGACGCTGCTG
Target: Centromere-binding protein 1, full length, His-tagged (CBF1, Saccharomyces cerevisiae, UniProt P17106, residues 1-351)
Chain of UniProt P17106 (whole entry, looked up): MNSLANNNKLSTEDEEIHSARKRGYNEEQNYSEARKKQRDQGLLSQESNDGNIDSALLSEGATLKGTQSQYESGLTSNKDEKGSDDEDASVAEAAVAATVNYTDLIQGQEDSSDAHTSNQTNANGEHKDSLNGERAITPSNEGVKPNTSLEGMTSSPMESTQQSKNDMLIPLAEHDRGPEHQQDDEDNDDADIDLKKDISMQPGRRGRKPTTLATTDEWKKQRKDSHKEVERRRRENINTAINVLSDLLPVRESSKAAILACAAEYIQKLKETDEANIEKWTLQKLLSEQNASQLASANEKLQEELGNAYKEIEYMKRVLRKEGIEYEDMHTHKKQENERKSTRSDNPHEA
Setting: whole 60-bp probe, lowest competitor level
Strand = AAATTACTAAGTTGCCACGTGTTTTACCCCGTATGA; result = 1220 a.u.
Strand = CTGGGACATATTCAGTTCGTGCCAGTTTTTAAAGGG; result = 82.8 a.u.
Strand = TTGTTCGAGTCTTTGCACGATCAAGCCTTTACTCTG; result = 63.9 a.u.
Strand = ATTCAGGCGGGTTGCCACGTGGCCGTTTATCTAATG; result = 1490 a.u.
Strand = ATTTTTCCTGTCCTGCAATTGTTCTCGAGGATTGCT; result = 70.8 a.u.
Strand = AGCTCTCTTGTCAGACACGTTTTGTCGAATTTCTTG; result = 135 a.u.
Strand = CCTGGACCTCCTGACCACGTGGTACTGCAGCTTCAA; result = 1660 a.u.
Strand = CGGGGTTAAGTTTGCCTAGTGGGTGGCTTGCAGCAG; result = 67.3 a.u.
Strand = CTTTCCCGATCTTGGAACGTGGGTGTAGCACATTTG; result = 82.8 a.u.
Strand = AAATTACTAAGTTTTCACGTGAGCTACCCCGTATGA; result = 1180 a.u.
Strand = TACCCTCTCAGTCCGCACGTGCGGAGGGATCAGCCT; result = 816 a.u.
Strand = AAAGCGGTAATTTGAGACGTGGGTGCAGATATCTAT; result = 82 a.u.
Strand = CTAACGAAGGTTTGCTCGGTGGGTGACAAGCCAAGT; result = 78.5 a.u.
Strand = GTGATATATTTGATACTTTTGAGATATCCTTGAAAG; result = 116 a.u.
Strand = TAGGCAGAGTGCTGGCACGATGATAGCGAGGGGTTG; result = 68.9 a.u.
Strand = CTTTCCCGATCTTGACTTGTGGGTGTAGCACATTTG; result = 77.5 a.u.
Strand = TCAACACTGTACTGTCACATGCTAATAAAGATAACA; result = 1030 a.u.
Strand = ACTTCTCCATTCCGTCAGCTGATACTCTATTCGGTT; result = 435 a.u.

Repeated from above (block 5):
Strand = GCAGGAC; result = 0.287
Strand = CAGAAAU; result = 1.16
Strand = UAUCCAG; result = -0.293
Strand = CGUGAUC; result = -0.293
Strand = AACAUAU; result = 0.568
Strand = CAACUAA; result = 0.222
Strand = ACACGCA; result = -0.0482
Strand = AUCAUCC; result = -0.271
Strand = UGAUUAC; result = -0.186
